# Measured values collected from several papers.
# A part holds a random share of what one study measured. Values joined by “and” are separate records of one study, mostly repeats; a detail may differ.
# Chain of UniProt P50750 (whole entry, looked up): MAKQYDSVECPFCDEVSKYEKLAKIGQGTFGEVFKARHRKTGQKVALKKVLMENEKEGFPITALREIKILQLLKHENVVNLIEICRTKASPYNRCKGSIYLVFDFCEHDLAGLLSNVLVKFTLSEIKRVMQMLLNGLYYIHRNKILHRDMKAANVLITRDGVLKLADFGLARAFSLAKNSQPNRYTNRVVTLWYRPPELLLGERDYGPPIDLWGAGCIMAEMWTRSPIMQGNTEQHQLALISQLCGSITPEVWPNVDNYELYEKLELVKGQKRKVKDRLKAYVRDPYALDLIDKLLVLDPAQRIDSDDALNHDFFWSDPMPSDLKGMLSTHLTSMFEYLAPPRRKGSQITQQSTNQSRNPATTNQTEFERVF
# Chain of UniProt Q7KZI7 (whole entry, looked up): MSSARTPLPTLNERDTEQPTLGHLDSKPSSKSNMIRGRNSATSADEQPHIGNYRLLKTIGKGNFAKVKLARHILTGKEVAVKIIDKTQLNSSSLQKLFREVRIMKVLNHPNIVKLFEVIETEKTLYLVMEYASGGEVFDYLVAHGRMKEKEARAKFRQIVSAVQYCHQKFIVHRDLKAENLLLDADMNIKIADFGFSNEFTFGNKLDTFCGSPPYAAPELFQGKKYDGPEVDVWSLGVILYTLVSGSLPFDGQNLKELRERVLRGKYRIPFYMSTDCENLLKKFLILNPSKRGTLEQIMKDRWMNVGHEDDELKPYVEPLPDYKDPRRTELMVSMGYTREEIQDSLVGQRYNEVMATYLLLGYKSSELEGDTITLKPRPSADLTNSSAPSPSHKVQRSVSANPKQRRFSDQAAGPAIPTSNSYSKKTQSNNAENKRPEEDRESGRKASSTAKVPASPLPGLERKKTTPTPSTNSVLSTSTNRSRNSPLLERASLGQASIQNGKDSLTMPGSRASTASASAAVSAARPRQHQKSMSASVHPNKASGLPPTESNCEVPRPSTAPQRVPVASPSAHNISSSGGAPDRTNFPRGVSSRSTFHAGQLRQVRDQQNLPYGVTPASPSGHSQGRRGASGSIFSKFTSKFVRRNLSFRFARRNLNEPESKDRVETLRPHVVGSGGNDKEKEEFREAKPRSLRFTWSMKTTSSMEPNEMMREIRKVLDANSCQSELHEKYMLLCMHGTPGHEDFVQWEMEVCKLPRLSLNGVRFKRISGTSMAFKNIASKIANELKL
# Chain of UniProt Q16832 (whole entry, looked up): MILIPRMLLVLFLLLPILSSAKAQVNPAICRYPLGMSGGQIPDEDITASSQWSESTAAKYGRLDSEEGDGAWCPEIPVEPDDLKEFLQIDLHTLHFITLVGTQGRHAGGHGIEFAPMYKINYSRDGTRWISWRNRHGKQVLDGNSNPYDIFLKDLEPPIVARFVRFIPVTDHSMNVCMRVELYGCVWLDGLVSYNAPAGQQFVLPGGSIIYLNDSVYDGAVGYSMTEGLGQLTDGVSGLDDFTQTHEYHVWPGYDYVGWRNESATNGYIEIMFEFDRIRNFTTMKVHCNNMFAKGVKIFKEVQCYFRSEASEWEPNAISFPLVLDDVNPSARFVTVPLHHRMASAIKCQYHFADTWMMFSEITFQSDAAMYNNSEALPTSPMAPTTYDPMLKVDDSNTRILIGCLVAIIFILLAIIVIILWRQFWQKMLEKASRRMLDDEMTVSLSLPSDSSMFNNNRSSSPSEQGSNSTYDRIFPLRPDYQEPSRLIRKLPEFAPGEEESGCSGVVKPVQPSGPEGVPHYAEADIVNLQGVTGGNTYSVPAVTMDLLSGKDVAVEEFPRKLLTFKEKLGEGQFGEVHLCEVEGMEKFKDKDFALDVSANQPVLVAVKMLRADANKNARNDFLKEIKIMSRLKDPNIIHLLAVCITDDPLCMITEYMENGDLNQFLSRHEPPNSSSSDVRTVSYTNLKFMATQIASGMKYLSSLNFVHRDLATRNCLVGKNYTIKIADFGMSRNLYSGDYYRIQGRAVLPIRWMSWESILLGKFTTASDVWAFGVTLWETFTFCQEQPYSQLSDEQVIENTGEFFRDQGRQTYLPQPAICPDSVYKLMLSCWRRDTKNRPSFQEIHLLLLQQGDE

# Series 1 — read-out: ATPase activity; technique: ADP-Glo; relative to: DMSO
# SMILES: CO[C@@H]1[C@@H](OC(N)=O)[C@@H](O)[C@H](Oc2ccc3c(O)c(NC(=O)c4ccc(O)c(CC=C(C)C)c4)c(=O)oc3c2C)OC1(C)C
# TRIP13: Pachytene checkpoint protein 2 homolog (TRIP13, Homo sapiens, UniProt Q15645)
# Chain of UniProt Q15645 (whole entry, looked up): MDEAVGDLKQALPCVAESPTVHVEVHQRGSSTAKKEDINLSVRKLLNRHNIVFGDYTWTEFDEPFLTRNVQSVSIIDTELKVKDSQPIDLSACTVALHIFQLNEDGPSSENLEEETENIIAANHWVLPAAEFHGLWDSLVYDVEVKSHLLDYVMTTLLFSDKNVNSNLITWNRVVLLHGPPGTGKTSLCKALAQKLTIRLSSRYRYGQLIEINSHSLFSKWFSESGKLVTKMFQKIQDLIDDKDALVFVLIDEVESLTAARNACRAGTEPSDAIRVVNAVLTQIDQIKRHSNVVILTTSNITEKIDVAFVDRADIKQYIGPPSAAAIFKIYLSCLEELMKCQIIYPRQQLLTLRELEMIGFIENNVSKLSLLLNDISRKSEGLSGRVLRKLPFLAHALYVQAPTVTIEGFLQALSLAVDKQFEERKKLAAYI
# BLM: RecQ-like DNA helicase BLM (BLM, Homo sapiens, UniProt P54132)
# Chain of UniProt P54132 (whole entry, looked up): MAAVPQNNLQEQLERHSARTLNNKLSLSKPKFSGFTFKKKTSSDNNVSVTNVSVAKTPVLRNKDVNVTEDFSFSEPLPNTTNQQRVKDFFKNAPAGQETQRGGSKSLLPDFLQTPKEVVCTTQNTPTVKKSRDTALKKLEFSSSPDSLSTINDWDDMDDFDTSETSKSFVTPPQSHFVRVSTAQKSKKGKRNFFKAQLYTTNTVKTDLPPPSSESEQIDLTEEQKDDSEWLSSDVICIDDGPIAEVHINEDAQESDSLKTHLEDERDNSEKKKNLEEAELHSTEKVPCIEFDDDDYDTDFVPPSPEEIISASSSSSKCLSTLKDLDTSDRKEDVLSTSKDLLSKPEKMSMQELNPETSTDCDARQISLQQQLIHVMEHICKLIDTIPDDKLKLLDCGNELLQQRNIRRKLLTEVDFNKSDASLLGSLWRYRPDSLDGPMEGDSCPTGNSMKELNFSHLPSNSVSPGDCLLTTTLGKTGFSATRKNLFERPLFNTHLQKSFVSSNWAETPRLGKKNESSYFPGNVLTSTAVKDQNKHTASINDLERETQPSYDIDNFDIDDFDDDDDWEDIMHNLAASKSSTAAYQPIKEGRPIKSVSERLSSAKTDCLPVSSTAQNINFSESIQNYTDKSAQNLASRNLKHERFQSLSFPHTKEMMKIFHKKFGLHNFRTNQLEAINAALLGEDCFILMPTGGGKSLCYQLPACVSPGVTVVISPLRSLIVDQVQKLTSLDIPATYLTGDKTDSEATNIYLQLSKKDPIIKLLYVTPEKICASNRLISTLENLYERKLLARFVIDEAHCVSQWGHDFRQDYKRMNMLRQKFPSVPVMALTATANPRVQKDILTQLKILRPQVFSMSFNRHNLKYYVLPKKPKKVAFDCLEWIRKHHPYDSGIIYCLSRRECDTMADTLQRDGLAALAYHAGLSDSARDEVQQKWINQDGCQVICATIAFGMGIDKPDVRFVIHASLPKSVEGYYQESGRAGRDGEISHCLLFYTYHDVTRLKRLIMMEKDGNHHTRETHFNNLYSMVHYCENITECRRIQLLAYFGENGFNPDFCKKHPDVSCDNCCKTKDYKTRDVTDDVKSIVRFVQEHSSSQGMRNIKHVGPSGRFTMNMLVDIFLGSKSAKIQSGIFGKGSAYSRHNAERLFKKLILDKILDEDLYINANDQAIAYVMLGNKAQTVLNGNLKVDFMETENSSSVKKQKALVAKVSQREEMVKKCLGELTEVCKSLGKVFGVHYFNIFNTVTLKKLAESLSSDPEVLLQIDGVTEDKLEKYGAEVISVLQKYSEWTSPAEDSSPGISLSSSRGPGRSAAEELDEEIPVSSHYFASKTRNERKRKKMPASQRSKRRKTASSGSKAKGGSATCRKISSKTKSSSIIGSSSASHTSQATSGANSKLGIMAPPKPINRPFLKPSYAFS
# SMARCAL1: SWI/SNF-related matrix-associated actin-dependent regulator of chromatin subfamily A-like protein 1 (SMARCAL1, Homo sapiens, UniProt Q9NZC9)
# Chain of UniProt Q9NZC9 (whole entry, looked up): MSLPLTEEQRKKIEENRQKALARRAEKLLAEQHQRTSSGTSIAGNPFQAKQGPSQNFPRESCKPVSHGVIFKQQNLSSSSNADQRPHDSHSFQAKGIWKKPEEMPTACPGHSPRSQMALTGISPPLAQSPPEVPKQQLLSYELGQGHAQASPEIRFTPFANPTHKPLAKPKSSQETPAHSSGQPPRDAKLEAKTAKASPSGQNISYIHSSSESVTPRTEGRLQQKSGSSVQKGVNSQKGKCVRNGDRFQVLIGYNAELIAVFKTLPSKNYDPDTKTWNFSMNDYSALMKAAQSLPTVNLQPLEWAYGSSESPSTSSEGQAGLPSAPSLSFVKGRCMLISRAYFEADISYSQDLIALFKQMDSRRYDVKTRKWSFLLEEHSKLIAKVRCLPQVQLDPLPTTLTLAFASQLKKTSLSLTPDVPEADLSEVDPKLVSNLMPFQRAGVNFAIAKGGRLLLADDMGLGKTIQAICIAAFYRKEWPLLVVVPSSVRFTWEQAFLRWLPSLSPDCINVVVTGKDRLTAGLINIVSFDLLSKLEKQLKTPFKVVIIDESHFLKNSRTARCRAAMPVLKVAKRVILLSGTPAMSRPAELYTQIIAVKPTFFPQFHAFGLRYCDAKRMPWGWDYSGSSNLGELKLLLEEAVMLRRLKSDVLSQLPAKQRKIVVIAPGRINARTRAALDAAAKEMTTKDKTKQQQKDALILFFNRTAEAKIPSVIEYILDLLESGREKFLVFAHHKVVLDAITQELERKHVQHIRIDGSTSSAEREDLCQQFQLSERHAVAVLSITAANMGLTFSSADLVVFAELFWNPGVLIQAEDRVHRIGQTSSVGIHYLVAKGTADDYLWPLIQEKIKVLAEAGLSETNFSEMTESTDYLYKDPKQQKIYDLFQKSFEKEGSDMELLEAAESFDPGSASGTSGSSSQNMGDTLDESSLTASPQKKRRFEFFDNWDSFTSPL
target,concentration,remaining activity
TRIP13,25 µM,95.8% and 95.1% and 101% and 72.5% and 89.9% and 104%
BLM,100 µM,88.4% and 63.7% and 47.6% and 81.9% and 90.4% and 84.2%
SMARCAL1,50 µM,95% and 96.1% and 98.4% and 107% and 101% and 94.7%
"Heat shock protein HSP 90-alpha (HSP90AA1, Homo sapiens, UniProt P07900)",50 µM,99.4% and 83.2% and 103% and 87.1% and 101%
BLM,50 µM,88.4% and 104% and 88.3% and 84.8% and 93.1% and 94.9%
TRIP13,100 µM,109% and 104% and 106% and 113% and 108%
SMARCAL1,25 µM,99.8% and 104% and 101% and 97.2% and 99.6%

# Series 2 — host: mouse; matrix: microsomes or S9; concentration: 2 µM; time: 0.5 h
Structure (SMILES),remaining compound [%]
Cc1cccc(C)c1NS(=O)(=O)c1c(C)nc(O)nc1O,81.9
O=C(Cn1ncccc1=O)N1Cc2cnc(N3CCOCC3)nc2C1,91.8
COc1cc(=O)n(-c2ccccc2)cc1C(=O)N1CC(S(=O)(=O)c2nccn2C)C1,99.4
CCOC(=O)/C=N/N(c1ccccc1)c1ccccc1[N+](=O)[O-],1.68
CCc1ccc(S(=O)(=O)[C@H]2CS(=O)(=O)C[C@@H]2N(C)CCc2ccncc2)cc1,0.468
Cc1c(O)ccc2c1oc1c(CC(C)C)c3c(O)nn(C(C)C)c3nc12,61.5
O=C(c1ccc2c(c1)N(Cc1ccc(Cl)cc1)C(=O)c1ccccc1[S+]2[O-])N1CCN(c2ccccn2)CC1 (stereo not drawn),0.712
CCCC(=O)Nn1c(=S)[nH]c2cc(C)[nH]c2c1=O,65.1
O=C(Nc1cccnc1Cl)NC1CCc2[nH]cnc2C1 (stereo not drawn),82.9
CC1CN(C2c3ccccc3-c3ccccc32)CC(C)(C)O1 (stereo not drawn),1.51
COc1ccc(-n2c(C)c(C)c3nc(OC)ccc32)cc1,0.13
O=c1c2sc3nc(N4CCOCC4)c4c(c3c2ncn1CCc1ccccc1)CCCC4,16

# Series 3 — Structure (SMILES): Cc1ccc(NC2=CC(=O)c3sc(C)nc3C2=O)cc1; read-out: enzyme activity; mode: inhibitor; concentration: 0.5 µM; relative to: control
target,remaining activity [%]
"cGMP-dependent protein kinase 2 (PRKG2, Homo sapiens, UniProt Q13237)",60.8
"Serine/threonine-protein kinase PLK3 (PLK3, Homo sapiens, UniProt Q9H4B4)",94.5
"Serine/threonine-protein kinase PAK 3 (PAK3, Homo sapiens, UniProt O75914)",97.5
"Calcium/calmodulin-dependent protein kinase type IV (CAMK4, Homo sapiens, UniProt Q16566)",98.5
"Cyclin-dependent kinase 1, with cyclin A (CDK1, Homo sapiens, UniProt P06493)",75.9
"Mitogen-activated protein kinase 11 (MAPK11, Homo sapiens, UniProt Q15759)",102
"Cyclin-dependent kinase 9, with cyclin K (CDK9, Homo sapiens, UniProt P50750)",84.4
"Vascular endothelial growth factor receptor 2 (KDR, Homo sapiens, UniProt P35968)",101
"Ribosomal protein S6 kinase alpha-4 (RPS6KA4, Homo sapiens, UniProt O75676)",88.4
"Serine/threonine-protein kinase Nek3 (NEK3, Homo sapiens, UniProt P51956)",88.2
"Tyrosine-protein kinase TXK (TXK, Homo sapiens, UniProt P42681)",98.8
"Serine/threonine-protein kinase MARK2 (MARK2, Homo sapiens, UniProt Q7KZI7)",91.1
"Discoidin domain-containing receptor 2 (DDR2, Homo sapiens, UniProt Q16832)",95.6

# Series 4 — technique: competition with immobilised ligand; concentration: 1 µM
# SMILES: CCc1ccccc1C(=O)Nc1n[nH]c2c(C)c(F)c(C3C(C#N)=C(C)N(C)C(C)=C3C#N)cc12
target,read-out,remaining binding [%]
"Serine/threonine-protein kinase PLK2 (PLK2, Homo sapiens, UniProt Q9NYY3)",cell-free assay,97
"Dual specificity protein kinase CLK4 (CLK4, Homo sapiens, UniProt Q9HAZ1)",cell-free assay,100
"Dual specificity protein kinase TTK (TTK, Homo sapiens, UniProt P33981)",binding,82
"Serine/threonine-protein kinase ICK (CILK1, Homo sapiens, UniProt Q9UPZ9)",binding,100
"1-phosphatidylinositol 3-phosphate 5-kinase (PIKFYVE, Homo sapiens, UniProt Q9Y2I7)",cell-free assay,100
"SNF-related serine/threonine-protein kinase (SNRK, Homo sapiens, UniProt Q9NRH2)",cell-free assay,100
"Mast/stem cell growth factor receptor Kit (KIT, Homo sapiens, UniProt P10721, T670I/V559D)",cell-free assay,98
